Results of several laboratories.
Every numbered part comes from another study and shows a few of its results, in no order.

Series 1
Target: Histone acetyltransferase KAT6A, winged helix 1, GST fusion (KAT6A, Homo sapiens, UniProt Q92794, residues 1-85)
Technique: protein binding microarray
Molecule type: double-stranded DNA, one strand shown
Sample: in vitro
Tested at: not given
Setting: 8-mer, flanks averaged, mean of 2 arrays, mostly near background
Relative to: not given
Direction: higher = stronger binding
Construct (chain): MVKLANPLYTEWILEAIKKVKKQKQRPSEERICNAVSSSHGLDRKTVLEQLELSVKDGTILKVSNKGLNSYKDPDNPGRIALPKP
`CTCGGTCC` has an E-score of 0.0105.
`CAACGTCG` gave an E-score of -0.0692.
`CACGGCCG` gave an E-score of 0.44.
`GCTCGAAC` has an E-score of -0.113.
`GGGGCCCA` has an E-score of -0.0781.
For `CACACGCC`, the E-score was 0.11.
For `GTGGCTTA`, the E-score was -0.128.
The E-score of `ACGGTTCC` is reported as 0.149.
`GCCGTTAA` gave an E-score of 0.208.
The E-score of `AAGACTTA` is reported as -0.2.
For `GTTGCTTA`, the E-score was -0.0637.
The E-score of `CACCTGAC` is reported as -0.102.
With `CAGCCCGC` the E-score was 0.194.
The E-score of `ATCAATGG` is reported as -0.193.
`ATGTAGAG` has an E-score of -0.256.
The E-score of `TAGGCAGA` is reported as -0.117.
With `GCGTAACC` the E-score was 0.316.

Series 2
Target: RNA binding protein fox-1 homolog 2, RRM domain, GST-SBP tag (RBFOX2, Homo sapiens, UniProt O43251-10, residues 100-194)
Technique: RNA Bind-n-Seq
Molecule type: RNA
Sample: in vitro
Tested at: 365 nM
Setting: natural RNA segment, single round, ends assumed
Relative to: no-protein control
Direction: higher = stronger binding
Target sequence (chain): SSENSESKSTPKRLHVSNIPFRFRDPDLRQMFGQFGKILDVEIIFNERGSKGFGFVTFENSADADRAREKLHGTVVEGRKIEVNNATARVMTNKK
`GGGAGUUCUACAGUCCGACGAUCCCAUUAAUAGUUUCUGGUUGACCAUUUGAACAUGUAUUAACUUAGGAAGACUAAUUGCCAAUAACGUCUGCAUUUUCAUCUUGCAUGGAUUAACAGCCAUUUAUAUGGACUGGAAUUCUCGGGUGCCAA` — result for “RBNS enrichment (R)”: 0.463.
`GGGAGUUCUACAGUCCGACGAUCAUUUGGACUGUGUGAUUGUGCCUCAGACACUAGACCUCUUCCAGAUGGUUAGGUUGUUCUGUAGACUGGCAAUGAGAUUAGAAGUUCCUAGCUUCAGAUAAAGAUGAAAGUGGAAUUCUCGGGUGCCAA`: “RBNS enrichment (R)” 0.296.
`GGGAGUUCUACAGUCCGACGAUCUACAUAGCAGCGGUUCCUGUCAUGUGUUCAUGUCAGAAUAUUUUUGGUUUUAAACUUUCUUAUUGCCUUUGGCUGUUGAUUAGUACAGUACAAGUGCGAUUUCAAAAAGAUGGAAUUCUCGGGUGCCAA`: “RBNS enrichment (R)” 0.347.
`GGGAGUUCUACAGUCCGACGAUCAUCUGGGAGGCUGGUCUCCCUCCAGCUGGAAUUGCUGCUCUCUGAGGGAGAGGCUGUGGUGGCUGUCUCUGUCCCUCACUGCCUUCCAGGAGCAAUUUGCACAUGUAACAUGGAAUUCUCGGGUGCCAA`: “RBNS enrichment (R)” 1.24.
Under “RBNS enrichment (R)”, `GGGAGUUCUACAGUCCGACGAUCAGGAGUCCACAGGGAUAGCUUCCGACAGCUCCAGCGACUCUUCCAGCUCCUCCAGCUCCAGUUCGUCAGACUCCGACUCAGAGUGCGAGUCUGGAUCCGAGGGCGAUGGGUGGAAUUCUCGGGUGCCAA` is recorded as 0.572.
For `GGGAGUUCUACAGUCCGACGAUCGGAAGCAUUUUGGAUAUGAUGCAGGAAAUCUCUUCCUGGAGUCAAAAGUUCCCAAGAGGUCCUGUAUUUUUAAGAAAUGGAAUUUAUUUAAAUAAUAUUUAAGCUUGUGCUGGAAUUCUCGGGUGCCAA`, “RBNS enrichment (R)” read 1.23.
Under “RBNS enrichment (R)”, `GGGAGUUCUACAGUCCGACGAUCUGACCUUUGUUCUCCAGACCUGACCCAGGUAGGCAAGGGUACCCUCCCAGUCUCACCUACCAUACUGUGCCAUCUCUAGCCAAGCAAGCCAGGUUUAGAGAAGGGUCAAAUGGAAUUCUCGGGUGCCAA` is recorded as 0.348.
`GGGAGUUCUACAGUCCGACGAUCGAUAGUUGCAAGUUCUUUAUGCACCUUCUACCCCUUCUGAGCCACUACUAUUCAAGCAGAGAUUUUGUCUAAUAGAACAUGCCUUUCUUGCUUUUGCUUCUUUUCUUUUGUGGAAUUCUCGGGUGCCAA`: “RBNS enrichment (R)” 0.686.

Series 3
Target: Ras GTPase-activating protein-binding protein 1, RRM domain (G3BP1, Homo sapiens, UniProt Q13283)
UniProt Q13283, sequence (whole entry, looked up): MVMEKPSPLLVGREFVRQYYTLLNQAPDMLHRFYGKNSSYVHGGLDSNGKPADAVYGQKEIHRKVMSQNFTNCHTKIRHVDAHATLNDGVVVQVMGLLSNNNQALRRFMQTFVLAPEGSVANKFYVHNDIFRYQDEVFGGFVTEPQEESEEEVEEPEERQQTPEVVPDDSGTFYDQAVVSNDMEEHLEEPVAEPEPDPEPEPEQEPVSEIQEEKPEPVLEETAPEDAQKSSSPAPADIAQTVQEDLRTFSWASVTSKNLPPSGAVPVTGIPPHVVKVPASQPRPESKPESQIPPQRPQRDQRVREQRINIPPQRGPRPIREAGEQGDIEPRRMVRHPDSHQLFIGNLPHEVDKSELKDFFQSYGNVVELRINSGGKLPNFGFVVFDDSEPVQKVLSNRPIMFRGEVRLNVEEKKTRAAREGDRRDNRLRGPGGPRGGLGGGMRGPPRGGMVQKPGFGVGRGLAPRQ
Technique: RNA Bind-n-Seq
Molecule type: RNA
Sample: in vitro
Tested at: 1 µM
Setting: whole 134-nt RNA, ends assumed
Added: 150 mM KCl
Relative to: input library
Direction: higher = stronger binding
For `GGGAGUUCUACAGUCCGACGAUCUGGAGAAGGAACGUGAUAAAGAAGUAAGCGAUGAUGAGGCUGAAGAAAAGGAAGACAAAGAAGAAGAAAAAGAAAAAGAAGAGAAAGAGUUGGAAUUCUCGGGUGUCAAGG`, the log2 enrichment was -0.125.
For `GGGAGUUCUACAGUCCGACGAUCCAAGUCCUGUGCUACACAUCGUAUGUACCGAAUCGGGUUUGGUUUGGGGUUUGGGAAAGUAUUAUGUUACGCCGUUCGGAUCUGCACUUCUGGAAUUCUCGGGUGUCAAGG`, the log2 enrichment was 0.128.
With `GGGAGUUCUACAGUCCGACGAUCCCUGUGCUACACAUCGUAUGUACCGAAUCGGGGAAAAAGGGGAAAAAGGGGAAAAAGGGGAAAGUAUUAUGUUACGCCGUUCGGAUCUGCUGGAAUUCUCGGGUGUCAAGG` the log2 enrichment was 0.674.
For `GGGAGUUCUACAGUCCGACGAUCCCUCAAGUCCUGUGCUACACAUCGUAUGUACCGAAUCGGGGUGGUGGUGGGGAAAGUAUUAUGUUACGCCGUUCGGAUCUGCACUUCCAGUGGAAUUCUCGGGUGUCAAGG`, the log2 enrichment was -0.301.
The log2 enrichment of `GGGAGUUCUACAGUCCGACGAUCCCUCAAGUCCUGUGCUACACAUCGUAUGUACCGAAUCGGUGGGGUGGGGUGGAAAGUAUUAUGUUACGCCGUUCGGAUCUGCACUUCCAGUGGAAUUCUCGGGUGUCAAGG` is reported as -0.204.
`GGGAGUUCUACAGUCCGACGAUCAAGUCCUGUGCUACACAUCGUAUGUACCGAAUCGGGUUUUUGGGAAAGGGAAAGGGAAAGUAUUAUGUUACGCCGUUCGGAUCUGCACUUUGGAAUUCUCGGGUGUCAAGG` gave a log2 enrichment of 0.481.
With `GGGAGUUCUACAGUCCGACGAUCAAGUCCUGUGCUACACAUCGUAUGUACCGAAUCGGUUUGGAAAAAAAGGAAAAAGGAAAGUAUUAUGUUACGCCGUUCGGAUCUGCACUUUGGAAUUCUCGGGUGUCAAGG` the log2 enrichment was -0.192.
With `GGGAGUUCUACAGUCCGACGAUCUGGGAGGUGGAUUUUGUUUAUUUUUUCAGCUCAUUUCCAGGGGUGGGAAUUUUUUUUUAAUAUGUGUCAUGAAUAAAGUUGUUUUUGAAAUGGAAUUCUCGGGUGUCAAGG` the log2 enrichment was 1.97.
With `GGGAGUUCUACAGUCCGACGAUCUGGCCCUGGUGGCAUGCGGGGAGGAAGAGGUGGCCUCAUGGAUCGUGGUGGUCCCGGUGGAAUGUUCAGAGGUGGCCGUGUUGGAGACAGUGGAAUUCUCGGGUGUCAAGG` the log2 enrichment was 1.67.

Series 4
Target: Interferon regulatory factor 7, full length, phosphomimetic (IRF7, Homo sapiens, UniProt Q92985, residues 1-503, S101K/S471D/S472D/S475D/S476D/S477D/S483D/S484D/S487D)
UniProt Q92985, sequence (whole entry, unmodified, looked up): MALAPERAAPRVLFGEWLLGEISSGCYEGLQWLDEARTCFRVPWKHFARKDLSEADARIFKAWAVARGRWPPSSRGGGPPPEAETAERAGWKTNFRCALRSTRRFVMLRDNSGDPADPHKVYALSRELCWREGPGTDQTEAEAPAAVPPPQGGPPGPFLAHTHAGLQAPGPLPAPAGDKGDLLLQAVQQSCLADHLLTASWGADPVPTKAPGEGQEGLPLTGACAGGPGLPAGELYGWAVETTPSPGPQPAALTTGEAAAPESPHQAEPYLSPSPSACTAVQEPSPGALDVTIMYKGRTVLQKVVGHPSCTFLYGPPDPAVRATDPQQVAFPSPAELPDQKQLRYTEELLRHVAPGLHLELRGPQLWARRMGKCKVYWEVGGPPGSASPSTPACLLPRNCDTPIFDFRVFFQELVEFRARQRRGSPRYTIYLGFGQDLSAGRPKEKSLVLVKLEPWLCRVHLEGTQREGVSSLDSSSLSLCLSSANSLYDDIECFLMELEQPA
Technique: protein-binding microarray
Molecule type: double-stranded DNA, one strand shown
Sample: in vitro
Tested at: 250 nM
Setting: 60-bp whole probe
Added: salmon DNA 0.4 mg/ml
Relative to: random background probes
Direction: higher = stronger binding
Constant ends, left off below: GCCTAGCAC … GTCTTGATTCGCTTGACGCTGCTG
For `ATAGGTCTCGGTTTCGGTTAGTGCTAG`, the log fluorescence was 11.2 z-score.
For `CTGACTTTGGAGATGACTCAGTGCTAG`, the log fluorescence was -0.0995 z-score.
`CAGGGTCTCGCTTCATCTCCGTGCTAG` has a log fluorescence of 2.83 z-score.
`ATCTCTTTCCTTACTTCCCAGTGCTAG` has a log fluorescence of 2.36 z-score.
`CAACATCTGCAAGATCCACAAGTGCTA` has a log fluorescence of -0.356 z-score.
The log fluorescence of `TTAGGTTTCGGTTTCGGTTTGTGCTAG` is reported as 15.7 z-score.
The log fluorescence of `TAATTTCCATTTTCTAAATTCGTGCTA` is reported as 4.26 z-score.
For `TCAATTCTCTTTTCACTACTGTGCTAG`, the log fluorescence was 1.63 z-score.
`GACGGTTTTGACTTTCGGGACGTGCTA` has a log fluorescence of 1.96 z-score.
`TTACGACTGGGACTGGGTTAGTGCTAG` gave a log fluorescence of -0.297 z-score.
With `CCCAGTCTCATATTTATTAGGTGCTAG` the log fluorescence was 0.659 z-score.
`TTAGGTCTGCTTCTCCTTTAGTGCTAG` gave a log fluorescence of 0.44 z-score.
`TTAGGTATCGGTCTCTGTTAGTGCTAG` gave a log fluorescence of 1.87 z-score.
`TTAGGACTCGGGTATCGGTTAGTGCTA` has a log fluorescence of 1.91 z-score.
For `CTACTTCTCTTTTGGCTTTCGTGCTAG`, the log fluorescence was 2.52 z-score.
`TCAGATATAAATGTAACACTGTGCTAG` gave a log fluorescence of 0.45 z-score.
With `TATAATTTTGTCATCTATAAGTGCTAG` the log fluorescence was 0.365 z-score.
For `GACGGTCTCCTACTGCTGATGTGCTAG`, the log fluorescence was -0.127 z-score.
With `TCACTACTGCATTTTTTACTGTGCTAG` the log fluorescence was -0.303 z-score.

Some of these lines once more (series 4):
For `TCAATTCTCTTTTCACTACTGTGCTAG`, the log fluorescence was 1.63 z-score.
For `CTACTTCTCTTTTGGCTTTCGTGCTAG`, the log fluorescence was 2.52 z-score.
With `CCCAGTCTCATATTTATTAGGTGCTAG` the log fluorescence was 0.659 z-score.
`CAGGGTCTCGCTTCATCTCCGTGCTAG` has a log fluorescence of 2.83 z-score.
For `CTGACTTTGGAGATGACTCAGTGCTAG`, the log fluorescence was -0.0995 z-score.
`TTAGGTCTGCTTCTCCTTTAGTGCTAG` gave a log fluorescence of 0.44 z-score.
`ATCTCTTTCCTTACTTCCCAGTGCTAG` has a log fluorescence of 2.36 z-score.
`TTACGACTGGGACTGGGTTAGTGCTAG` gave a log fluorescence of -0.297 z-score.
